Published values gathered from unrelated publications.
Parts stem from different laboratories: compare values within a part only.
UniProt P31152, sequence (whole entry, looked up): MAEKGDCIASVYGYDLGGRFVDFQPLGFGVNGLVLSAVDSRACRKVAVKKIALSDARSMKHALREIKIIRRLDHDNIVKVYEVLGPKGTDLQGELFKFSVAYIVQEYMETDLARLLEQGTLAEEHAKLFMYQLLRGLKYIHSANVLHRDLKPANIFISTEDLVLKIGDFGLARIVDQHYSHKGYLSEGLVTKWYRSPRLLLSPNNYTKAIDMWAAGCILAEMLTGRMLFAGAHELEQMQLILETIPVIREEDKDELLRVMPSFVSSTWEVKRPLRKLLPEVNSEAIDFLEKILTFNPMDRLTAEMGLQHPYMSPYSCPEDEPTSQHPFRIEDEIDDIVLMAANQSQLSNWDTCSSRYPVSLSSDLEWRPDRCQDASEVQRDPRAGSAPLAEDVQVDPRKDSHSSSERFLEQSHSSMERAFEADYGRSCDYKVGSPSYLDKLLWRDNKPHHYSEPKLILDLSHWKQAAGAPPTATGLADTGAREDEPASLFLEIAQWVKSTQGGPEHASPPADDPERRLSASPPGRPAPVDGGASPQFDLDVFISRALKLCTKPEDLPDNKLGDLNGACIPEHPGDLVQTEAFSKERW
UniProt P53355, sequence (whole entry, looked up): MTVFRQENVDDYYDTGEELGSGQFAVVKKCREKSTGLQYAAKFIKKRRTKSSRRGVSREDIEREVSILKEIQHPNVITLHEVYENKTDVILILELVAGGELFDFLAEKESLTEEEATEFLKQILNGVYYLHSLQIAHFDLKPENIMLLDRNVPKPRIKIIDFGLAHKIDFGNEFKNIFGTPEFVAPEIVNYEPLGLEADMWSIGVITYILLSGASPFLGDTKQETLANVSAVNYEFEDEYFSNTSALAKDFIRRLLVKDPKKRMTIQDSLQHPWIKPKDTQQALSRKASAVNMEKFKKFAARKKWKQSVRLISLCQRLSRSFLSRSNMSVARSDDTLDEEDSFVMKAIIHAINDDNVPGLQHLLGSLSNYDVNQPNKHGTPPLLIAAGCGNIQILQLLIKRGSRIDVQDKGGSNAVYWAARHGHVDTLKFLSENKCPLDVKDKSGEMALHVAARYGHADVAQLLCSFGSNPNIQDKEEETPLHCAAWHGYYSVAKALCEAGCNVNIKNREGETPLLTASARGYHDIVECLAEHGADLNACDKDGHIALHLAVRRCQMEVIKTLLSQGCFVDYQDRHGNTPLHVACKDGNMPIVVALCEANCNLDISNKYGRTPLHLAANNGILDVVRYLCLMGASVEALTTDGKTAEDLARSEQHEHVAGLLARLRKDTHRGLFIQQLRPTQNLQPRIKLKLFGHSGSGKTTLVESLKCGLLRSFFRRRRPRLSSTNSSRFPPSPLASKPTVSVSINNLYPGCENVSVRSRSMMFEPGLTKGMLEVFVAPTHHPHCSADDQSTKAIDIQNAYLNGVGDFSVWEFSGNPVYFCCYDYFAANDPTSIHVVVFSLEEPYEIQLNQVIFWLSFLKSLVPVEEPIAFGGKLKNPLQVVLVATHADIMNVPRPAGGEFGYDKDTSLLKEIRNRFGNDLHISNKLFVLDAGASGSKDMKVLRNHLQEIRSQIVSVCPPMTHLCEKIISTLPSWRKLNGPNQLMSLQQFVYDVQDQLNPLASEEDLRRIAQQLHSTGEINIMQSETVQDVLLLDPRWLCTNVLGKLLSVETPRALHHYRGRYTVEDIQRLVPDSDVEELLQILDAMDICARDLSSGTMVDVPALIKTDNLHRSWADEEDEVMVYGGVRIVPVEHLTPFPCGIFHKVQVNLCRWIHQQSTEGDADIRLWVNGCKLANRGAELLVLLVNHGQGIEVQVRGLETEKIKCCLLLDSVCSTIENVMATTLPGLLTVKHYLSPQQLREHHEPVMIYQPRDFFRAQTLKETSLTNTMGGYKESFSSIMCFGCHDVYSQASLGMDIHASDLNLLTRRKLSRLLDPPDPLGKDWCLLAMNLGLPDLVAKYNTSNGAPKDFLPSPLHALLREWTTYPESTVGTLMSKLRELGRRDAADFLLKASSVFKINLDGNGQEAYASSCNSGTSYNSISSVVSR
UniProt Q14289, sequence (whole entry, looked up): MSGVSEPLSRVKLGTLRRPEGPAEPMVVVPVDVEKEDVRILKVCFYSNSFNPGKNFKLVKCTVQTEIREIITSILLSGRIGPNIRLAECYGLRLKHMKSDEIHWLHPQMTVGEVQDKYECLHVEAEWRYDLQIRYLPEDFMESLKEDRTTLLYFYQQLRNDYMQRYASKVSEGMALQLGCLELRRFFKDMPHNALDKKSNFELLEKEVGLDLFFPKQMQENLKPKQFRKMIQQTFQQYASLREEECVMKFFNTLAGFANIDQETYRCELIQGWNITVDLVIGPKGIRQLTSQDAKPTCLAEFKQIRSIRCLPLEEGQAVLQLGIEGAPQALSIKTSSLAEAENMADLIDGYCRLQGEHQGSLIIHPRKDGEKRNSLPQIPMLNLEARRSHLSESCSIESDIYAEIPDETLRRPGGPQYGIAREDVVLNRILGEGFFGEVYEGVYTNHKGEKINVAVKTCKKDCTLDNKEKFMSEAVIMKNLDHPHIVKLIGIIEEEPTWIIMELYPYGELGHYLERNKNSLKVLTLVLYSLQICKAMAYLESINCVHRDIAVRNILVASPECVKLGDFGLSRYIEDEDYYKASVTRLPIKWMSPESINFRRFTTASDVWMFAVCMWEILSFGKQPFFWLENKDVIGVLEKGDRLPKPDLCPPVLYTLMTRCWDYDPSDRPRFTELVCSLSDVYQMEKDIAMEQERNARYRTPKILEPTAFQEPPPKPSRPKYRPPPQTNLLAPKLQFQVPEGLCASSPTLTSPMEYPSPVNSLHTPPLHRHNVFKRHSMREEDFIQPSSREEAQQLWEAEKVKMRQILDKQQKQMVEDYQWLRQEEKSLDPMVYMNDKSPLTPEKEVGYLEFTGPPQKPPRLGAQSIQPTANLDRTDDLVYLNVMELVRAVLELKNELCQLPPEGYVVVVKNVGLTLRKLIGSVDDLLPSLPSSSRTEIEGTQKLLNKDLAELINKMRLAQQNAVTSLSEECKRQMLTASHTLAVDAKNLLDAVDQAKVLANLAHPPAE
UniProt Q06418, sequence (whole entry, looked up): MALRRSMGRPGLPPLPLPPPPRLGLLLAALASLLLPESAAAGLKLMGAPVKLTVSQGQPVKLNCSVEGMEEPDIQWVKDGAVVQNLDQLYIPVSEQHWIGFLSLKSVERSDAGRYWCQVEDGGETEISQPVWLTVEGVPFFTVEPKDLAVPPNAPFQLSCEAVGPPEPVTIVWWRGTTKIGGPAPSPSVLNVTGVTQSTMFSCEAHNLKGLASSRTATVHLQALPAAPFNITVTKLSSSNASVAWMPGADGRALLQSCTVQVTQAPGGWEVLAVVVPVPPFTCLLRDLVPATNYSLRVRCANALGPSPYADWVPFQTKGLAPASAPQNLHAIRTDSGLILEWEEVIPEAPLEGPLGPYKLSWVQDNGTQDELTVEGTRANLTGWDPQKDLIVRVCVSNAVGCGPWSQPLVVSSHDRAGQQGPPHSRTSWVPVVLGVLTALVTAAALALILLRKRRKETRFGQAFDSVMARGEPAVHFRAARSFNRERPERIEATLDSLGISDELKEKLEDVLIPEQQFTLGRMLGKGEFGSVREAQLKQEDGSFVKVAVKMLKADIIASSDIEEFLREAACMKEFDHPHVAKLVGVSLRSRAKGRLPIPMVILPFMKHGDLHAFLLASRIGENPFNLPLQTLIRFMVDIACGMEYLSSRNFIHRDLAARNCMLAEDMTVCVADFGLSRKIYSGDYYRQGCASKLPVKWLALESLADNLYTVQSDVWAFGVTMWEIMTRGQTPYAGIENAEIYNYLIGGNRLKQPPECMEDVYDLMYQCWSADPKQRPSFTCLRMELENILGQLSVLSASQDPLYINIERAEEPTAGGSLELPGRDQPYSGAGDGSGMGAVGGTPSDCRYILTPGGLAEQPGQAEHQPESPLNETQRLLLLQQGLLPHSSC
UniProt P78368, sequence (whole entry, looked up): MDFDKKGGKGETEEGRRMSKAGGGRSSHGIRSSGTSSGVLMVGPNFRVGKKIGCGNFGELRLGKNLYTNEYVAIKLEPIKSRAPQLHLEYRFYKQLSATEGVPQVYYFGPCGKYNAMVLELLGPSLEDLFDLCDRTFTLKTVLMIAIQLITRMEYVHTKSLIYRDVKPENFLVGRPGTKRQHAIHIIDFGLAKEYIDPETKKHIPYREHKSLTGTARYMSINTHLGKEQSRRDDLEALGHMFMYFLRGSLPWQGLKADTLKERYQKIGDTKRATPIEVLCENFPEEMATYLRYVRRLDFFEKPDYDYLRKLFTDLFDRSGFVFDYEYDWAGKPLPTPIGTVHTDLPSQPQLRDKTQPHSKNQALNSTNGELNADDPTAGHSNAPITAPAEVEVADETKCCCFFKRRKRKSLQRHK

Set 1 — effect on: enzyme activity; mode: inhibitor; tested at: 0.5 µM; relative to: control
Target: Tyrosine-protein kinase BTK (BTK, Homo sapiens, UniProt Q06187)
UniProt Q06187, sequence (whole entry, looked up): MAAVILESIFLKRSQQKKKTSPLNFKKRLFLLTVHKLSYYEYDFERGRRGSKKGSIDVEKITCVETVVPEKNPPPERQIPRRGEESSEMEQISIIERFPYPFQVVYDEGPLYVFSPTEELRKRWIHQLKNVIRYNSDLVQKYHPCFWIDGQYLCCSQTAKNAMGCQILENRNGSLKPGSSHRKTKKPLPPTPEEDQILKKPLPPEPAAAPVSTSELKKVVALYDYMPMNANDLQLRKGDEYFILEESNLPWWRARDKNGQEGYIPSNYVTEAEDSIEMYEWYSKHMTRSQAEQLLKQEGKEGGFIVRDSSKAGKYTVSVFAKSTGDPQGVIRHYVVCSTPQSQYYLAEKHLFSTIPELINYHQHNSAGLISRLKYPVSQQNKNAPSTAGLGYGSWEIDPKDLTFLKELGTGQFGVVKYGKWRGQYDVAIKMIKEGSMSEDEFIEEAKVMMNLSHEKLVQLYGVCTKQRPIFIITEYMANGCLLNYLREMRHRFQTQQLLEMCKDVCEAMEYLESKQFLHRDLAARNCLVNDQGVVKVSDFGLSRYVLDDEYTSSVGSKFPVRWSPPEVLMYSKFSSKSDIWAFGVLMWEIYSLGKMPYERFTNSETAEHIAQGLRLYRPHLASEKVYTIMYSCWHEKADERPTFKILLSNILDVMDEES
SMILES | remaining activity
N#Cc1c(NC(=O)c2cccc3ccccc23)sc2c1CCCC2 | 95%
CN(C)C[C@H]1CCn2c(c(C3=C(c4cn(C)c5ccccc45)C(=O)NC3=O)c3ccccc32)C1 | 103%
Cc1cn(-c2cc(NC(=O)c3ccc(C)c(Nc4nccc(-c5cccnc5)n4)c3)cc(C(F)(F)F)c2)cn1 | 101%
Nc1cccc(-c2cc3c(Oc4cccc(O)c4)ncnc3[nH]2)c1 | 33.6%
O=C(Nc1cccc(Nc2nccc(Nc3cccc(C(F)(F)F)c3)n2)c1)C1CC1 | 83.7%
O=C1c2ccccc2-c2n[nH]c3cccc1c23 | 97.8%
CCOc1nc(NC(=O)Cc2cc(OC)ccc2OC)cc(N)c1C#N | 92.5%
COc1cc2c(cc1OC)-c1[nH]nc(Nc3cccc(F)c3)c1C2 | 40.8%
Ic1cccc(CSc2nnc(-c3ccncc3)o2)c1 | 95.6%
COc1cc2ncnc(Nc3cccc(Cl)c3)c2cc1OC | 76.7%
c1ccc(-c2[nH]ncc2-c2ccnc3ccccc23)nc1 | 104%
CCN(CC)CCNC(=O)c1c(C)[nH]c(/C=C2\C(=O)Nc3ccc(Cl)cc32)c1C | 58.3%
Cc1cc2ncc(-c3ccccc3)nc2cc1C | 94.8%
O=c1cc(-c2cccc3c2Sc2ccccc2S3)oc(N2CCOCC2)c1 | 104%
O=C(NC(NC(=S)Nc1ccc(F)c([N+](=O)[O-])c1)C(Cl)(Cl)Cl)C(c1ccccc1)c1ccccc1 (stereo not shown) | 104%
Cn1nc2c3c(cccc31)C(=O)c1ccccc1-2 | 89.5%
COc1cc2ncnc(Nc3ccc(O)c(Br)c3)c2cc1OC | 85.5%
Cc1nc2cc3nc(-c4cccs4)cnc3cc2n1C | 101%
CCN(CC)C(=O)c1ccc(Nc2nc(OCC3CCCCC3)c3[nH]cnc3n2)cc1 | 37.1%
CCN(CC)CCNC(=O)c1c(C)[nH]c(/C=C2\C(=O)Nc3ccc(F)cc32)c1C | 50.2%
N#C/C(=C\c1ccc(O)c(O)c1)C(=O)NCc1ccccc1 | 99.8%
O=C1C(Cl)=C(N2C(=O)CCC2=O)C(=O)c2ccccc21 | 103%
c1ccc(-c2cnc(Nc3ccc(OCCN4CCCC4)cc3)s2)cc1 | 101%

Set 2 — cell line: Huh-7; tested at: 10 µM; time: 24 h
Structure (SMILES) | viability [%]
Cn1nnnc1SCC1=C(C(=O)O)N2C(=O)[C@@H](NC(=O)[C@H](OC=O)c3ccccc3)[C@H]2SC1 | 103
CCCC1O[C@@H]2C[C@H]3[C@@H]4CCC5=CC(=O)C=C[C@]5(C)[C@H]4[C@@H](O)C[C@]3(C)[C@]2(C(=O)CO)O1 (stereo partly shown) | 92.8
NCC(=O)CCC(=O)O | 102
CN1CCCN=C1COC(=O)C(O)(c1ccccc1)C1CCCCC1 (stereo not shown) | 101
CCN1CCCC1CNC(=O)c1cc(S(N)(=O)=O)ccc1OC (stereo not shown) | 95.2
O=S(=O)(O)CCS | 99.1
Cc1oncc1C(=O)Nc1ccc(C(F)(F)F)cc1 | 98.9
O=C(O)c1cc(O)c2c(c1)[C@H]([C@H]1c3cc(C(=O)O)cc(O)c3C(=O)c3c(O[C@@H]4O[C@H](CO)[C@@H](O)[C@H](O)[C@H]4O)cccc31)c1cccc(O[C@@H]3O[C@H](CO)[C@@H](O)[C@H](O)[C@H]3O)c1C2=O | 99.9
C[C@H]1COc2c(N3CCN(C)CC3)c(F)cc3c(=O)c(C(=O)O)cn1c23 | 88.2

Set 3 — cell line: mouse MPNST tumor cells; technique: high-content immunofluorescence imaging; item: nuclear SOX9; tested at: 10 µM; time: 12 h; setting: mean of 2 replicates; relative to: DMSO control; reading: higher = more nuclear SOX9
Compound | nuclear SOX9 intensity
CC(C)n1c(=O)n(C(=O)NC2CC3CCC(C2)N3C)c2ccccc21 (stereo not shown) | 123 % of DMSO
Cc1cn2cc(CC(=O)N3CCC4(CC3)CN(Cc3ccc(-n5nccn5)cc3Cl)C4)nc2s1 | 138 % of DMSO
Cc1cccc2c1NC(=O)C2(c1ccc(O)cc1)c1ccc(O)cc1 | 104 % of DMSO
Cc1oc(-c2cccs2)cc1C(=O)O | 95.5 % of DMSO
C[C@]12CCC(=O)C=C1CC[C@@H]1[C@@H]2C(=O)C[C@@]2(C)[C@H]1CC[C@]2(O)C(=O)CO | 90.2 % of DMSO
COCC(=O)Nc1c(I)c(C(=O)NCC(O)CO)c(I)c(C(=O)N(C)CC(O)CO)c1I (stereo not shown) | 99.4 % of DMSO
OCCC#Cc1nc(-c2ccc(F)cc2)c(-c2ccncc2)n1CCCc1ccccc1 | 98 % of DMSO

Set 4 — effect on: cell-free assay; technique: competition with immobilised ligand; tested at: 1 µM
Compound: CC(=O)C1=C(C)N(c2cccc(C(F)(F)F)c2)C(=O)N[C@@H]1c1ccc(C#N)nc1
target | remaining binding [%]
MAPK4 (Homo sapiens, UniProt P31152) | 100
CDC42BPA (Homo sapiens, UniProt Q5VT25) | 100
BRAF (Homo sapiens, UniProt P15056, V600E) | 100
LRRK2 (Homo sapiens, UniProt Q5S007, G2019S) | 100
SRPK3 (Homo sapiens, UniProt Q9UPE1) | 100
EPHA2 (Homo sapiens, UniProt P29317) | 100
TYRO3 (Homo sapiens, UniProt Q06418) | 66.9
CHEK1 (Homo sapiens, UniProt O14757) | 73.2
CSNK1G2 (Homo sapiens, UniProt P78368) | 94.6
PTK2B (Homo sapiens, UniProt Q14289) | 100
PNCK (Homo sapiens, UniProt Q6P2M8) | 92.4
STK17B (Homo sapiens, UniProt O94768) | 100
DAPK1 (Homo sapiens, UniProt P53355) | 93.8
Tyrosine-protein kinase JAK1, JH2 (JAK1, Homo sapiens, UniProt P23458) | 100
CDK7 (Homo sapiens, UniProt P50613) | 90.6
GSK3A (Homo sapiens, UniProt P49840) | 95

For quick reference, copied from above (set 4):
target | remaining binding [%]
Tyrosine-protein kinase JAK1, JH2 (JAK1, Homo sapiens, UniProt P23458) | 100
PTK2B (Homo sapiens, UniProt Q14289) | 100
MAPK4 (Homo sapiens, UniProt P31152) | 100
